Experimental data gathered from unrelated publications.
Protocols differ between the studies behind these lines. Values joined by “and” are separate records of one study, mostly repeats; a detail may differ. ± gives the spread as reported.

COc1cccc(OC)c1-c1cc(C(=O)NC2(C(=O)O)C3CC4CC(C3)CC2C4)nn1-c1ccc(C(=O)N(C)CCCN(C)CCCN(C)C(=O)CN2CCN(CC(=O)[O-])CCN(CC(=O)[O-])CCN(CC(=O)[O-])CC2)cc1C(C)C.[177Lu+3] (stereo not drawn)  tissue uptake (mouse HT-29 xenograft, large intestine; 24 h post injection, biodistribution): 0.23 %ID/g
O=C(Nc1nc2cccc(-c3ccc(CN4CCS(=O)(=O)CC4)cc3)n2n1)C1CC1  treatment-emergent adverse events (item: arthralgia; human rheumatoid arthritis patients; oral, 300 mg once daily, 4 weeks, regardless of relatedness): 0%
Cl.[2H]C([2H])([2H])CC(=O)c1cnc(NC(=O)C2CC2)cc1Nc1cccc(-c2ncn(C([2H])([2H])[2H])n2)c1OC  elimination rate constant (geometric mean; human; oral, 20 mg twice daily, day 1, fed, liquid, multiple dose): 4.5e-05 s⁻¹
CCCCCNC(=O)N1CCC(CN(Cc2ccc(Cl)cc2)Cc2ccc([N+](=O)[O-])s2)C1 (stereo not drawn)  blood cell fraction (item: LY%; C57BL/6 mouse, blood; 100 mg/kg twice daily, 7 days): 73.7 ± 4.5%
C[C@@H]1OC(=O)[C@H](Cc2ccccc2)[C@H]1O  KFoc (soil adsorption; clay soil; pH 7.6, organic carbon 1.7 %): 218 mL/g
CC(=O)N1CC(C(=O)Nc2ccc(C3CCCCC3)cc2)C1  hepatic clearance (liver microsome stability; mouse liver microsomes; 1 µM): 46 mL/min/kg
CN1CCN(c2cccc3c2CCN(C(=O)/C=C/c2c(-n4cnnn4)ccc(Cl)c2F)[C@@H]3C(=O)Nc2ccc(C(=O)O)cc2)C(=O)C1  subjects with serious adverse event (healthy human subjects; intravenous infusion, 4 mg/h, 2 h): 0%
CCCCC1=NC2(CCCC2)C(=O)N1Cc1ccc(-c2ccccc2S(=O)(=O)Nc2noc(C)c2C)c(COCC)c1  Cmax (healthy adult volunteers, plasma; oral, 100 mg, single dose, fasted, crushed tablet): 2850 ng/mL
Nc1ncnc2c1c(-c1ccc(Oc3ccccc3)cc1)nn2[C@@H]1CCCN(C(=O)C(O)CO)C1 (stereo partly drawn)  maximal concentration threshold (B-LPD patients; hypertension risk, ROC): 225 mg/L
O=C1NCCc2nc(OCc3cccc(F)c3)ccc21  Irwin test score (item: Writhing; Sprague-Dawley rat male; oral, 100 mg/kg, 4 h; direction not given): 0
O=C(Nc1ccc([C@H]2[C@@H](F)[C@@H](F)C[C@@H](F)[C@H]2F)cc1)c1cn[nH]c1  hepatic clearance (cryopreserved rat hepatocytes; 1 µM): 13 mL/min/kg
CNC(=O)c1ccc(-c2cnc3ncc(Cc4ccc5ncccc5c4)n3n2)cc1F  patients with adverse event (item: Ascites, all grades; gastric cancer patients; oral, 600 mg twice daily, expansion cohort, any causality): 11%
CCc1cc2ncc(CN3CCN(c4ccc(C(=O)NC)nc4)CC3)cc2[nH]c1=O  Lymphocytes count ratio (female rat, blood; oral, 50 mg/kg/day, 4 weeks; baseline: vehicle control): 0.67
N#Cc1ccc2c(c1)[C@H]1CCCN(C(=O)c3ccc4[nH]cnc4c3)[C@H]1C2  cortisol level change (human; 80 mg, end of trial; baseline: baseline): -85 nmol/L
NC(=O)N1c2ccccc2C=Cc2ccccc21  adverse events incidence (item: gastrointestinal disorders (SOC); human male; oral, dose not given, AEs, treatment-related, on drug, CTCAE): 33%
C=CC(=O)N1CCC([C@@H]2CCNc3c(C(N)=O)c(-c4ccc(Oc5ccccc5)cc4)nn32)CC1  stability relative error (rat plasma; 800 ng/mL, 3 h, room temperature; baseline: nominal concentration): -2.6%
COc1ccc2c(c1)sc(-c1ccc(N(C)C)cc1)[n+]2C  excitation maximum wavelength (PBS; free dye): 411 nm
COc1cc2c(Nc3ccc(Cl)c(Cl)c3F)ncnc2cc1OC[C@@H]1C[C@@H]2CN(C)C[C@@H]2C1  unbound plasma concentration (FVB wild-type mouse; oral, 70 mg/kg, 2 h): 20.7 ng/mL
CC(=O)O[C@H]1C(=O)[C@@]2(C)[C@H]([C@H](OC(=O)c3ccccc3)[C@]3(O)C[C@H](OC(=O)[C@H](O)[C@@H](NC(=O)c4ccccc4)c4ccccc4)C(C)=C1C3(C)C)[C@]1(OC(C)=O)CO[C@@H]1C[C@@H]2O  adverse event incidence (item: Dysgeusia; patients with advanced solid tumours; intravenous, dose not given, grade 1 and 2, possibly related to drug): 28%
C[C@]12CC[C@@H]3c4ccc(O)cc4CC[C@H]3[C@@H]1CCC2=O  dose fraction in skim milk (whole cow milk; 20 nM nominal): 22.3%
Cc1ccc(C(=O)N(CCCN)C(c2nc3snc(C)c3c(=O)n2Cc2ccccc2)C(C)C)cc1 (stereo not drawn)  patients with adverse events (item: Hypophosphatemia; human patients; intravenous, 16 mg/day, CTCAE grade ≥3): 11%
C#C[C@]1(CO)O[C@@H](n2cnc3c(N)nc(F)nc32)C[C@@H]1O  AUC(0-168 h) (human, plasma; oral, 100 mg single dose, extrapolated beyond 96 h): 11 µM·h
CC(C)(C(=O)N1CCOc2c(C#N)cncc2C1)C(F)F  subjects with adverse event (item: Investigations; human; oral, 40 mg, CSF pharmacokinetic cohort): 0%
CSCC[C@H](NC(=O)[C@H](CCCCN)NC(=O)[C@H](CCCNC(=N)N)NC(=O)[C@H](CO)NC(=O)[C@H](Cc1c[nH]c2ccccc12)NC(=O)[C@H](CCCNC(=N)N)NC(=O)[C@H](CC(C)C)NC(=O)[C@@H](N)CCSC)C(=O)N1CCC[C@H]1C(=O)N[C@@H](CS)C(=O)N[C@H](C(=O)N[C@@H](CO)C(N)=O)C(C)C  remaining activity (12G5 competition, SUP-T1 cells; human plasma; concentration not given, 8 h): 1 ± 0.3%
CN1C(=O)[C@@H](NC(=O)c2nnc(Cc3ccccc3)[nH]2)COc2cccnc21  participants with any serious TEAE (phase I multiple ascending dose; human, male and female; oral, 200 mg, 14 days): 0%
C=CC(=O)Nc1cc(Nc2nccc(-c3cn(C4CC4)c4ccccc34)n2)c(OC)cc1N(C)CCN(C)C  relative error (bench-top stability; rat plasma; 160 ng/mL, 3 h, room temperature; baseline: nominal concentration): -8.5%
NC(=O)c1[nH]cnc1N  AUC(0-8h) (human patients, plasma; IV infusion over 1 h, 1000 mg/m^2 DTIC, cycle 2 day 1, staggered with co-drug): 31600 ng·h/mL
CC(C(=O)Nc1ccc([C@H]2[C@@H](F)[C@@H](F)C[C@@H](F)[C@H]2F)cc1)n1cncn1 (stereo partly drawn)  hepatic clearance (cryopreserved human hepatocytes; 1 µM): 6.2 mL/min/kg
CC(C(=O)NCC(=O)NCC(CNC(=O)CNC(=O)C(C)N1CCN(CC(=O)[O-])CCN(CC(=O)[O-])CCN(CC(=O)[O-])CC1)(CNC(=O)CNC(=O)C(C)N1CCN(CC(=O)[O-])CCN(CC(=O)[O-])CCN(CC(=O)[O-])CC1)CNC(=O)CNC(=O)C(C)N1CCN(CC(=O)[O-])CCN(CC(=O)[O-])CCN(CC(=O)[O-])CC1)N1CCN(CC(=O)[O-])CCN(CC(=O)[O-])CCN(CC(=O)[O-])CC1.[Gd+3].[Gd+3].[Gd+3].[Gd+3] (stereo not drawn)  Gd concentration (LA-ICP-MS; rat, femur cortical mineralized bone; 0.6 mmol Gd/kg, 1 week): < 1 nmol Gd/g
CCc1c(-c2ccccc2)c(-c2ccccc2)nn1-c1ccccc1-c1cccc(OCC(=O)O)c1  concentration (Sprague-Dawley rat, plasma; oral, 10 mg/kg, 8 h): 128 ng/mL and 190 ng/mL
O=C(Cn1ccnc1)Nc1ccc([C@H]2[C@@H](F)[C@@H](F)C[C@@H](F)[C@H]2F)cc1  hepatic clearance (mouse liver microsomes; 1 µM): 15 mL/min/kg
N#C[C@@]1(c2ccc3c(N)ncnn23)O[C@H](CO)[C@@H](O)[C@H]1O  recovery (plasma protein binding; dog plasma; 1 µM, time not given): 99.6%
CCOc1c([C@H](C)n2nc(C)c3c(N)ncnc32)cc(Cl)c(F)c1[C@@H]1CNC(=O)C1  observations with HR ≤100 bpm (human B-cell malignancy patients; oral, all doses, baseline below threshold): 99.1%
CO[C@H]1C[C@@H]2CC[C@@H](C)[C@@](O)(O2)C(=O)C(=O)N2CCCC[C@H]2C(=O)O[C@H]([C@H](C)C[C@@H]2CC[C@@H](OC(=O)NCCOCCOCCOCCOCCOCCOCCOCCOCCC(=O)N3CCc4cc(Cn5nc(-c6ccc7oc(N)nc7c6)c6c(N)ncnc65)ccc4C3)[C@H](OC)C2)C[C@@H](O)[C@H](C)/C=C(\C)[C@@H](O)[C@@H](OC)C(=O)[C@H](C)C[C@H](C)/C=C/C=C/C=C/1C  Tmax (human, plasma; intravenous, 6 mg, cycle 1 day 15, arithmetic mean): 0.9 h
COc1ccc(-c2ncn(S(=O)(=O)c3cc(C(F)(F)F)cc(C(F)(F)F)c3)n2)cc1  degradation rate constant (chemical stability, HPLC-MS; borate buffered saline; pH 10.2, no N-acetyl-lysine): 0.6 h⁻¹
COc1cc2nccc(Oc3ccc(NC(=O)c4cc5c(n(-c6ccccc6)c4=O)CCCC5=O)nc3)c2cc1OC  grade ≥3 Hyperglycaemia patients (relapsed or refractory AML; oral, all dose levels): 10%
O=C(Cc1ccc2ccccc2c1)Nc1cc(C2CCC2)[nH]n1  hepatic intrinsic clearance (mouse liver S9): 120 ± 4.8 mL/min/kg
OCc1nc2ccc(NCc3ccc(C(F)(F)F)cc3)cc2[nH]1  MRT(0-inf) (Balb/c mice, male, plasma; oral, 10 mg/kg): 1.93 ± 0.2 h
CC(=O)N1CC(C(=O)Nc2ccc([C@H]3[C@@H](F)[C@@H](F)C[C@@H](F)[C@H]3F)cc2)C1  hepatic clearance (hepatocyte stability; cryopreserved rat hepatocytes; 1 µM): 10 mL/min/kg
Cc1cc(C)c(CNC(=O)c2cc(Cl)c3c(c2C)O[C@@](C)([C@H]2CC[C@H](N(C)C)CC2)O3)c(=O)[nH]1  adenovirus infection grade ≥3 (human relapsed/refractory NHL; oral, 200 mg once daily, onset day 1 to 14): 0%
C=CC(=O)NC1CCN(c2ncc3ncnc(Nc4ccc(Oc5ccc6c(c5)ncn6C)c(C)c4)c3n2)CC1  AUC0–inf (item: total radioactivity; healthy male volunteers, plasma; oral solution, 60 mg, added: [14C]-labelled compound): 30.5 µM·h
CC(C(=O)Nc1ccc(C2CCCCC2)cc1)n1cncn1 (stereo not drawn)  hepatic clearance (human liver microsomes; 1 µM, without NADPH): 3.9 mL/min/kg
O=[N+]([O-])c1ccc(-c2ccc(O)cc2)c2cccnc12  Vdss (ICR mice male, plasma; intravenous, 1 mg/kg): 0.8 L/kg
Fc1ccc(CCCCN2CCN(c3ccccn3)CC2)cc1  time on bar (catalepsy, bar test; Sprague-Dawley rat; intraperitoneal, dose not given, 60 min): < 20 s
CN(Cc1cccnc1)C(=O)c1ccc(C2CCCCC2)cc1  hepatic clearance (liver microsome stability; rat liver microsomes; 1 µM): 52 mL/min/kg
